Earlier results that unrelated publications cite.
Lines come from different studies, so protocols differ. Numbers after ± are the reported error.

Structure (SMILES) | target | test | conditions | scale | quantity | value
O=[N+]([O-])c1ccc(-c2cc(C3CC4CCC3N4)cnc2F)cc1 (racemic) | human α4β2 nicotinic receptor | antagonist |  | baseline: dihydro-β-erythroidine | relative antagonist potency | 17 fold
COc1ccc2sc3c(c2c1)SCCNC3=O | protein kinase D isoforms | inhibitor |  | baseline: compound over CID755673 | potency ratio | ≥ 2 fold
CCCCCCCC/C=C\CCCCCCCCOP(O)(O)=S | LPA2 receptor | agonist |  |  | EC50 | 124 ± 15 nM
CN(C)c1ccc(/C=C/C(=O)c2ccc(OC(=O)N3CCCC3)cc2O)cc1 | amyloid beta 1-42 | self-induced aggregation | 25 µM |  | inhibition | 89.5%
CC(=O)N[C@H]1[C@@H](OC[C@H](NC(=O)CNC(=O)[C@@H]2CCCN2C(=O)[C@H](C)NC(=O)[C@@H]2CCCN2C(=O)[C@@H](N)CCCNC(=N)N)C(=O)N[C@H](C(=O)N[C@@H](C)C(=O)N2CCC[C@H]2C(=O)N2CCC[C@H]2C(=O)N[C@@H](C)C(=O)N[C@@H](Cc2c[nH]cn2)C(=O)NCC(=O)O)[C@@H](C)O)O[C@H](CO)[C@H](O)[C@@H]1O | 14 A monoclonal antibody | SPR |  |  | kon | 117000 M⁻¹ s⁻¹
CC(C)[C@H](NC(=O)[C@H](CO)NC(=O)[C@@H](N)CC(=O)O)C(=O)N[C@H]1CSC(=O)[C@H](Cc2ccccc2)NC(=O)[C@H](Cc2ccc(O)cc2)NC(=O)[C@H](CO)NC(=O)[C@H](C)NC1=O | AgrC-II Staphylococcus epidermidis | agr signalling | concentration not given |  | activity | inhibited
Nc1c(C(=O)O)ncn1C1OC(COP(=O)(O)O)C(O)C1O (stereo not drawn) | Escherichia coli PurE |  |  |  | kcat | 16 s⁻¹
N=C(N)NCCC[C@H](NC(=O)[C@@H]1CCCN1C(=O)[C@@H]1CSSC[C@H](N)C(=O)N[C@@H](Cc2ccc(O)cc2)C(=O)N[C@@H](Cc2ccccc2)C(=O)N[C@@H](CCC(N)=O)C(=O)N[C@@H](CC(N)=O)C(=O)N1)C(=O)NCC(N)=O | oxytocin receptor | calcium mobilization |  | baseline: human over macaque | species selectivity ratio | ~10 fold
O=C(c1cccc2ccccc12)c1nc2ccccc2n1CCCCCF | cannabinoid CB2 receptor | binding |  | baseline: CB1 over CB2 | selectivity ratio | > 10
CC[C@H](C)[C@@H]1NC(=O)[C@H](COP(=O)(O)O)NC(=O)[C@H](CCSC)NC(=O)CSC[C@@H](C(N)=O)NC(=O)[C@H](C)NC(=O)[C@H](C(C)C)NC(=O)[C@H](Cc2ccc(OP(=O)(O)O)cc2)NC1=O | PP2A | enzyme activity | concentration not given |  | activity | inactive
COc1ccc(N2CCN(C(=O)ON3C(=O)C4CN(Cc5ccc(Oc6ccccc6)cc5)CCN4C3=O)CC2)cc1 (stereo not drawn) | PPT1 | inhibitor | concentration not given |  | inhibition | inhibited
COc1cc(/C=C/C(=O)N2CCC(Cc3ccccc3)CC2)ccc1OCCCCN(N1CCCc2ccccc21)N1CCCc2ccccc21 | BChE |  |  |  | IC50 | 8.9 nM

For quick reference, copied from above:
Structure (SMILES) | target | test | conditions | scale | quantity | value
O=C(c1cccc2ccccc12)c1nc2ccccc2n1CCCCCF | cannabinoid CB2 receptor | binding |  | baseline: CB1 over CB2 | selectivity ratio | > 10
CC(C)[C@H](NC(=O)[C@H](CO)NC(=O)[C@@H](N)CC(=O)O)C(=O)N[C@H]1CSC(=O)[C@H](Cc2ccccc2)NC(=O)[C@H](Cc2ccc(O)cc2)NC(=O)[C@H](CO)NC(=O)[C@H](C)NC1=O | AgrC-II Staphylococcus epidermidis | agr signalling | concentration not given |  | activity | inhibited
